Experimental data of several laboratories.
Lines come from different studies, so protocols differ. Several values in a cell are separate wells, animals, samples, runs or records.
IL1RL2: Interleukin-1 receptor-like 2 (IL1RL2, Homo sapiens, UniProt Q9HB29)
UniProt Q9HB29, sequence (whole entry, looked up): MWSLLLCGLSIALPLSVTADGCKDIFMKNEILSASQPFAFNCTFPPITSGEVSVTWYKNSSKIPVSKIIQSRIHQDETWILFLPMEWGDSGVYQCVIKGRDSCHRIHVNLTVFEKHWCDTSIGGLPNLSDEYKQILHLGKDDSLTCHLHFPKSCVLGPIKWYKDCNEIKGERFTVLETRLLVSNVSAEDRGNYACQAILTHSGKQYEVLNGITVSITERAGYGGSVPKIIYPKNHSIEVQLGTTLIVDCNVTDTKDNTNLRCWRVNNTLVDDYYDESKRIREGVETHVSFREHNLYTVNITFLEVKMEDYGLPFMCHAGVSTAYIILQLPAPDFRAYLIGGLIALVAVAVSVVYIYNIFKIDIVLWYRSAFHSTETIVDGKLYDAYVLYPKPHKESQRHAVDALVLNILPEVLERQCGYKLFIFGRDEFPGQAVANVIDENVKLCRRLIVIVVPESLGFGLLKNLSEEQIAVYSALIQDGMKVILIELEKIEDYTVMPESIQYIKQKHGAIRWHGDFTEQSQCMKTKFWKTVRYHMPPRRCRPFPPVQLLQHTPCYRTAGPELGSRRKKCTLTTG
MAPK8: Mitogen-activated protein kinase 8 (MAPK8, Homo sapiens, UniProt P45983)
UniProt P45983, sequence (whole entry, looked up): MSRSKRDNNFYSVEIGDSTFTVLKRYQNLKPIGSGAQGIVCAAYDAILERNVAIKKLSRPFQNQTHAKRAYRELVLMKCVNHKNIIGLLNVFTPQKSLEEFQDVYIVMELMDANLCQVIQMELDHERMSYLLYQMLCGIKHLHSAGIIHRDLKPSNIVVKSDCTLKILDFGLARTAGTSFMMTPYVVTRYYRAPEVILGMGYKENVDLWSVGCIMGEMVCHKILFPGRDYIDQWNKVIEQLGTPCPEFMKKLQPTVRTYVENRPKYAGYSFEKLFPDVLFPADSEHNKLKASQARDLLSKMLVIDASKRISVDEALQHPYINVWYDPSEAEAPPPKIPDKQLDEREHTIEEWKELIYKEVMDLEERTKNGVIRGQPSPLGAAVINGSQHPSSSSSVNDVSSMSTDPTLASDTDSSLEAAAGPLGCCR
UniProt O75417, sequence (whole entry, looked up): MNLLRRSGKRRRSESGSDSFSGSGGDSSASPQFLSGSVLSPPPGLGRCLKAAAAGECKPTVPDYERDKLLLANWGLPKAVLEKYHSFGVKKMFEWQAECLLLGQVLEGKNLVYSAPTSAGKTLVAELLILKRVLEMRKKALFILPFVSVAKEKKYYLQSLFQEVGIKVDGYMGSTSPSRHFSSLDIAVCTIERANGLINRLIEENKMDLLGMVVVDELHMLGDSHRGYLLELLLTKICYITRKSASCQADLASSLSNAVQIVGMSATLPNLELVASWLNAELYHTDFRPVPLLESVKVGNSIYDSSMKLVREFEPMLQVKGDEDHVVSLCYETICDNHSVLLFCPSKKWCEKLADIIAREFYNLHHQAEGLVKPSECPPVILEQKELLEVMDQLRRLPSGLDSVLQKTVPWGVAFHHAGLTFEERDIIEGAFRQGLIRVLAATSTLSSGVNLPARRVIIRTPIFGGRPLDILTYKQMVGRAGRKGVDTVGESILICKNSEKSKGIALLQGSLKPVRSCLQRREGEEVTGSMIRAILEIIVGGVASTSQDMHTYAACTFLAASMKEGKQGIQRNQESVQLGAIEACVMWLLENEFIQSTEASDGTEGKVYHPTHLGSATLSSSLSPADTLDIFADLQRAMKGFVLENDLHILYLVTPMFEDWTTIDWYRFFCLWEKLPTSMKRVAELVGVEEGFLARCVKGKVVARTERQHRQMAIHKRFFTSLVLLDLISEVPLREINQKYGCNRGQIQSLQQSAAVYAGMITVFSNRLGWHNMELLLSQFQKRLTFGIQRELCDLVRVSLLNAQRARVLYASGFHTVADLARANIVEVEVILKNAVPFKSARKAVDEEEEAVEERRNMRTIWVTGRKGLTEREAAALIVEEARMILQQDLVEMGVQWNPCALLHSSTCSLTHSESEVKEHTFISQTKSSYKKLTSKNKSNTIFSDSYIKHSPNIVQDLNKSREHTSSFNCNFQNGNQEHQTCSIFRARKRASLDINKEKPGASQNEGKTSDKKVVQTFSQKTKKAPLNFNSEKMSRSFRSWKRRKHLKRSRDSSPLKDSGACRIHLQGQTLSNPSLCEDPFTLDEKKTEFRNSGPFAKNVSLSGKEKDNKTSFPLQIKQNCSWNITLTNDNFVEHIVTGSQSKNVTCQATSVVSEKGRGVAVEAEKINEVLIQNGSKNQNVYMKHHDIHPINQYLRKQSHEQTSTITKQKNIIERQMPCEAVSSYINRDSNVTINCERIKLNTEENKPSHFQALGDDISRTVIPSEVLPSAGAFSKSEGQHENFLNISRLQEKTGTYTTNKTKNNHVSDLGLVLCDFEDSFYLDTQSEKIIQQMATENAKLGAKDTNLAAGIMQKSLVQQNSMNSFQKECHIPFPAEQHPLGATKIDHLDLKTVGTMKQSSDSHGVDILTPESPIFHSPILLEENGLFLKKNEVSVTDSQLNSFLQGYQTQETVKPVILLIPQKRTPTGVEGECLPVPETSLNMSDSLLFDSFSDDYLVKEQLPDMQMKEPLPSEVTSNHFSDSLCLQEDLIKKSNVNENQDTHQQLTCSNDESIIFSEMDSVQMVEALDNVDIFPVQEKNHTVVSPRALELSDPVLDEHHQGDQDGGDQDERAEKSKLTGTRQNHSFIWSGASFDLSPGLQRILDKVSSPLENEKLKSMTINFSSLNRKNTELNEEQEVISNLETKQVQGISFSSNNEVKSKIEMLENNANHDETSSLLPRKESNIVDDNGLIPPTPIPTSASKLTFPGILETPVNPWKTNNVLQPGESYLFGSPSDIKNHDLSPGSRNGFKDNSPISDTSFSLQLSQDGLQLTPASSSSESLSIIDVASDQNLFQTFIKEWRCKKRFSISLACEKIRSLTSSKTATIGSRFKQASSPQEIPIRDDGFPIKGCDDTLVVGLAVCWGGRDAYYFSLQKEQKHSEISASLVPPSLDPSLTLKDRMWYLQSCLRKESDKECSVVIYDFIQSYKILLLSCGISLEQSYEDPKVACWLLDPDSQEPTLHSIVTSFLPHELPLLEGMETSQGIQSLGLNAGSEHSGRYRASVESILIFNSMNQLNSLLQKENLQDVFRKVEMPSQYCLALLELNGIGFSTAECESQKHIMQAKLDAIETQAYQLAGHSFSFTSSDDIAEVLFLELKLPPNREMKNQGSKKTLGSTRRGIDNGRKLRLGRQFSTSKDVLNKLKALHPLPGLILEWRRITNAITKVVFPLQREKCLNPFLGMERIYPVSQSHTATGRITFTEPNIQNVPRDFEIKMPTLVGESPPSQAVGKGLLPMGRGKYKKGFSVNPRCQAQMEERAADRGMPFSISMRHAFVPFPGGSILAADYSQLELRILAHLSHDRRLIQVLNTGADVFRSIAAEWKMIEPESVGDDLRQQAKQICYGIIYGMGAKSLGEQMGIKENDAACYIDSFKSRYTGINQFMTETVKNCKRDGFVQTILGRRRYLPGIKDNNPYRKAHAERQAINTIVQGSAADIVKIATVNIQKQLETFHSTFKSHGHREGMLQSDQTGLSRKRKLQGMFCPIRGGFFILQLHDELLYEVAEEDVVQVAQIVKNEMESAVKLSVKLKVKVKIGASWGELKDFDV
UniProt Q9UKR3, sequence (whole entry, looked up): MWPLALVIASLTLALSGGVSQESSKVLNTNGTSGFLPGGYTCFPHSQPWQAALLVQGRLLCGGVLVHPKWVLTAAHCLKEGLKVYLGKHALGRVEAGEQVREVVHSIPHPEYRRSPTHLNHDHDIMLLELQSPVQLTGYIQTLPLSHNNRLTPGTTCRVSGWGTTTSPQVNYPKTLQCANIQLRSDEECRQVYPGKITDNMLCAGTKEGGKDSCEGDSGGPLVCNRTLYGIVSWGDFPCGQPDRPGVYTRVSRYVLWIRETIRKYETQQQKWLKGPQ

CC(C)[C@@H]1NC(=O)[C@H](Cc2ccccc2)NC(=O)CSC[C@@H](C(N)=O)NC(=O)[C@H](CCC(=O)O)NC(=O)[C@H](CO)NC(=O)[C@H](Cc2c[nH]c3cccc(Cl)c23)NC(=O)[C@H](C2CCCCC2)NC(=O)[C@H](C(C)C)NC(=O)[C@H](Cc2ccc(O)cc2)NC(=O)[C@H](CC(=O)O)NC(=O)[C@H](Cc2c[nH]c3ccccc23)NC(=O)[C@H](Cc2ccc(N)nc2)NC(=O)[C@H](Cc2c[nH]c3ccc(Cl)cc23)NC(=O)[C@H](CCC(=O)O)NC1=O — remaining activity (IL1RL2; reporter gene (SEAP), inhibitor, HEK-Blue IL-36R reporter; HEK-Blue IL-36R cells; 11.11 µM, 6 h, with: IL-36γ 1 ng/mL): 8.7%
O=C(NCCO)c1ccc(C2CCCCC2)cc1 — hepatic clearance (liver microsome stability; human liver microsomes; 1 µM, without NADPH): 3.9 mL/min/kg
O=C=[N][Ru-4]123([n]4c5ccc(O)cc5c5c6c(c7cc(F)c[n+]1c7c54)C(=O)NC6=O)[S+]1CC[S+]2CC[S+]3CC1 (centres unmarked) — remaining activity (Tyrosine-protein kinase ABL1 (ABL1, Homo sapiens, UniProt P00519, Q252H); enzyme activity; 100 nM, human enzyme, with: 10 µM ATP; baseline: untreated): 95%
C[C@](C(=O)NC1CCOCC1)(c1cncnc1)N(C(=O)[C@H](F)Cl)c1ccc(OC(F)(F)Cl)cc1 — remaining activity (Kallikrein-13 (Homo sapiens, UniProt Q9UKR3); enzyme activity, inhibitor; 10 µM): 104%
COc1ccccc1-c1ccncc1C(=O)Nc1nnc(OCc2ccc(Cl)cc2)s1 — remaining activity (DNA polymerase theta, helicase domain (POLQ, Homo sapiens, UniProt O75417); ATPase activity, ADP-Glo; 0.48 µM, with: ATP 400 µM): 33%
O=C(CC1CCOCC1)Nc1ccc([C@H]2[C@@H](F)[C@@H](F)C[C@@H](F)[C@H]2F)cc1 — hepatic clearance (liver microsome stability; mouse liver microsomes; 1 µM): 34 mL/min/kg
COC(=O)[C@@]1(C)C=C(C(=O)Nc2cccc(C(=O)Nc3ccc(Nc4nccc(-c5cccnc5)n4)c(C)c3)c2)C(=O)CC1 — remaining activity (MAPK8; enzyme activity, inhibitor; 8.36e-05 µM, 6 h, unit not given, with: GSH 10 mM pre-incubation; baseline: vehicle): 1.02
CN(Cc1cc(C2CC2)on1)C(=O)c1cccc(-c2ccc3c(c2)CCO3)c1 — remaining activity (Acetyl-CoA synthetase (Cryptococcus neoformans, UniProt J9VFT1); enzyme activity, inhibitor, coupled pyrophosphate; 781 nM): 94.3% and 97.7%
COc1ccc(NC(=O)Nc2ccc3c(c2)C(=O)N(C(C)CO)CC(C)C(CN(C)Cc2ccc4c(c2)OCO4)O3)cc1 (centres unmarked) — remaining activity (Tyrosine-protein kinase ABL1 (ABL1, Homo sapiens, UniProt P00519, T315I); kinase activity; 0.03 µM; baseline: control): 98%
COC(=O)[C@]1(C(C)C)C=C(C(=O)Nc2cccc(C(=O)Nc3ccc(Nc4nccc(-c5cccnc5)n4)c(C)c3)c2)C(=O)CC1 — remaining activity (MAPK8; kinase activity, inhibitor; 1.646 µM, unit not given, with: 10 mM glutathione; baseline: no inhibitor): 0.393
N#Cc1cnc2sc(C(=O)O)cc2c1N1CCc2[nH]nc(C(=O)N[C@@H](CC(=O)NCCOCCN3CCOCC3)c3cccc(Br)c3)c2C1 — remaining activity (IL1RL2; reporter gene (SEAP), inhibitor, HEK-Blue IL-36R reporter; HEK-Blue IL-36R cells; 0.14 µM, 6 h, with: IL36G 0.01 ng/mL): 92.4%
